Assay results from different studies.
Lines come from different studies, so protocols differ. ± gives the spread as reported. In brackets after ≈: the same amount, converted by molar mass.

CCCC[C@H](NC(=O)CNC(=O)CNC(=O)CN1CCN(CC(=O)O)CCN(CC(=O)O)CCN(CC(=O)O)CC1)C(=O)N[C@H]1CC(=O)NCCCC[C@@H](C(N)=O)NC(=O)[C@H](Cc2c[nH]c3ccccc23)NC(=O)[C@H](CCCNC(=N)N)NC(=O)[C@@H](Cc2ccccc2)NC(=O)[C@H](Cc2c[nH]cn2)NC1=O [gallium-67 labelled]  urinary excretion (C57 mice, female, B16/F1 melanoma, urine; intravenous, 0.037 MBq, 24 h): 92.7 ± 1.09%
OCc1cn(Cc2ccc(-c3noc(-c4ccc(OCC[18F])c(C(F)(F)F)c4)n3)cc2)nn1  tissue uptake (female Lewis rat, thymus; intravenous, 5 min): 0.69 ± 0.08 %ID/g
[Cl-].[Cl-].[Ru+2].c1ccc2nc3c4cccnc4c4ncccc4c3nc2c1.c1ccncc1.c1ccncc1.c1ccncc1.c1ccncc1  hemolysis (red blood cells, rabbit; 20 µM, 2 h, 37 °C): 0.64 ± 0.01%
OC1(C(F)(F)F)CCN(c2nc(Nc3ccnc(C(F)(F)F)c3)nc(-c3cccc(C(F)(F)F)n3)n2)C1 (centres unmarked)  faecal excretion of radioactivity (Sprague-Dawley rat, both sexes, faeces; oral, 10.1 mg/kg, 168 h, with: [14C]-labelled compound; reference: dose): 95.7 ± 2.4%
Cc1ccc(C(=O)N[C@@H](CO)CC(C)C)cc1CO  metabolite peak area (LC-MS; human liver microsomes; 10 µM of parent drug, 60 min, pH 7.4, with: NADPH; reference: parent drug at time zero): 0.1%
CC(C)(Sc1cc[n+]([O-])cc1-c1ccc(C#N)c2ccccc12)C(=O)OC1OC(C(=O)O)C(O)C(O)C1O (centres unmarked)  renal clearance (human, urine; oral, 15 mg, 72 h, normal renal function): 298 mL/min
OCc1[nH]nc2c1N=C(c1ccccc1Cl)c1cnc(N3CCOCC3)cc1N2  metabolite to parent ratio (human male, plasma; oral, 10 mg, 0-120 h; reference: metabolite AUC over parent AUC): 5.38%
Cc1cc(O)c2c(c1)C(=O)c1cc(O)cc(O)c1C2=O.Cc1cc(O)c2c(c1)C(=O)c1cc(O)cc(O)c1C2=O.Cc1nc(C)c(C)nc1C  cumulative dissolution (powder dissolution; 900 mL medium; equivalent to 60 mg emodin, pH 6.8, 37 °C, 100 rpm): ~333 µg
C=C(c1cc(F)c(C(=O)O)c(F)c1)c1cc2c(cc1C)C(C)(C)CCC2(C)C  blood cholesterol (Sprague-Dawley rat, male; oral, 100 mg/kg, 12 h, sesame oil vehicle): 65 ± 13 mg/dL
CCN(CC)CC#CCNc1ccnc2cc(Cl)ccc12  thermodynamic solubility (100 mM phosphate buffer; pH 7.4): > 1200 µM
CC(=O)N([O-])CCCCCNC(=O)CCC(=O)N([O-])CCCCCNC(=O)CCC(=O)N([O-])CCCCCN.[89Zr+4]  intact complex (radio-iTLC; aqueous buffer; initial, pH 7.5, 37 °C, EDTA challenge, with: 100-fold excess EDTA): 97.3 ± 0.6%
N=C(N)NCCC[C@@H]1NC(=O)[C@H](Cc2c[nH]c3ccccc23)NC(=O)[C@@H](CC2CCCCC2)NC(=O)[C@@H]2CCCN2C(=O)[C@@H](NC(=O)CCc2ccccc2)CCCNC1=O  elimination half-life (C57BL/6J mice, spinal cord; subcutaneous, 1 mg/kg): 34.8 min
NS(=O)(=O)c1ccc(-n2nc(C(F)(F)F)cc2-c2ccc(F)cc2F)cc1  metabolite formation rate (substrate; male beagle dog liver microsomes; 20 µM, pH 7.4, mean of 0-90 and 0-60 min): 2.4 pmol/min/mg
COc1cc(C)c(Cc2ccc(O)cc2)cc1[C@@H]1S[C@H](CO)[C@@H](O)[C@H](O)[C@H]1O  AUC(0-τ) ratio (Japanese T2DM patients, plasma; 5 mg luseogliflozin, day 7, once daily; reference: compound over luseogliflozin): 0.148 ± 0.0136
O=C(NCCCN(CCCCN(CCCNC(=O)c1cccc(=O)n1[O-])C(=O)c1cccc(=O)n1[O-])C(=O)c1cccc(=O)n1[O-])c1cccc(=O)n1[O-].[89Zr+4]  intact complex (radio-TLC; PBS; 1 h, pH 7.4, 37 °C, with: Zn^2+ 10-fold excess): 98.6 ± 2%
O=C([O-])CN1CCN(CC(=O)[O-])CCN(CC(=O)[O-])CCN(CC(=O)[O-])CC1.[Fe+3]  second-order rate constant (metal exchange with Zn2+, UV/Vis; 100 µM metal chelate, pH 7.4, 37 °C, with: 100 µM ZnCl2): 0.0517 ± 0.00167 M⁻¹ s⁻¹
NCC(=O)N1CCC[C@H]1C(=O)N1C[C@H](O)C[C@H]1C(=O)O  log beta (potentiometric titration; 37 °C, MAH-1 complex, with: Fe(III)): 12.9
Oc1ccc2ccccc2c1/N=N/c1ccc(/N=N/c2ccccc2)cc1  measured concentration (rat whole blood QC samples; 5.0 µg/L, 8 h, room temperature, short-term stability): 5.33 µg/L
Cc1ccc(OCC(=O)O)cc1  Cmax (Sprague-Dawley rat, female, plasma; oral gavage, 100 mg/kg of parent drug): 12300 ± 5360 ng/mL
COC(=O)/C=C/C(=O)c1ccc(OC)cc1  recovery (LC-MS/MS; rat plasma; 400 ng/mL, 12 h, room temperature, short-term storage): 101 ± 6.32%
Cn1c(=O)oc2ccc(-c3ccc(CC(C#N)NC(=O)C4CNCCCO4)c(F)c3)cc21 (centres unmarked)  subjects with TRAE (item: blood bilirubin increased; human; 80 mg single dose, fasted): 0%
COC(=O)c1ccc(-c2cn(Cc3cc(Cl)ccc3O[11CH3])nn2)cc1  peak SUV (PET/MR; rhesus monkey, whole brain; iv): > 3
Nc1ncnc(NCC2CCN(C(=O)C(O)CO)CC2)c1-c1ccc(Oc2ccccc2)cc1 (centres unmarked)  AUC(0-24) ratio (healthy male human, plasma; oral, 75 mg evobrutinib; reference: metabolite over total radioactivity): 14.9%
O=C(Nc1nccs1)C(c1cc(F)ccc1O)N1Cc2ccccc2C1=O (centres unmarked)  AUC(0-4h) (mouse FVB/NRj, female, plasma; oral, 20 mg/kg): 534 ± 273 ng·h/mL
Cn1cc(C(=O)N[C@@H]2CCc3cc(C(=O)O)ccc32)cn1  radioactive dose excreted in urine (human, pooled urine; oral, 20 mg; reference: dose): 0.177%
COc1cc2c(cc1OC)CN(CCCCn1ccc3cc(OCC[18F])ccc31)C2  brain/blood ratio (ICR mice, male; intravenous, 60 min): 1.16 ± 0.16
CCCCCCCCC=CCCCCCCCC(=O)OC(COC(=O)Cc1c(C)n(C(=O)c2ccc(Cl)cc2)c2ccc(OC)cc12)COP(=O)([O-])OCC[N+](C)(C)C (centres unmarked)  hydrolytic stability (buffer; 24 h, pH 7.2, 37 °C): stable
O=C(O)C1OC(OC2C(COS(=O)(=O)O)OC(OC3C(C(=O)O)OC(OC4C(COS(=O)(=O)O)OC(OC5C(C(=O)O)OC(OC6C(COS(=O)(=O)O)OC(OC7C(C(=O)O)OC(OC8C(COS(=O)(=O)O)OC(OC9C(C(=O)O)OC(OC%10C(COS(=O)(=O)O)OC(OC%11C(C(=O)O)OC(Oc%12ccc([N+](=O)[O-])cc%12)C(O)C%11O)C(NS(=O)(=O)O)C%10O)C(OS(=O)(=O)O)C9O)C(NS(=O)(=O)O)C8O)C(OS(=O)(=O)O)C7O)C(NS(=O)(=O)O)C6O)C(OS(=O)(=O)O)C5O)C(NS(=O)(=O)O)C4O)C(OS(=O)(=O)O)C3O)C(NS(=O)(=O)O)C2OS(=O)(=O)O)C(O)C(O)C1OC1OC(COS(=O)(=O)O)C(O)C(O)C1NS(=O)(=O)O (centres unmarked)  blood urea nitrogen (rats, serum; intravenous, 3600 µg/kg/day for 7 days, day 8): 17.8 ± 2.4 mg/dL
Cn1cc(C(N)=O)c(NC2C3CC4CC2CC(OS(=O)(=O)O)(C4)C3)c2ccnc1-2 (centres unmarked)  AUC(0-t) (Japanese adults, mild hepatic impairment, plasma; oral, 150 mg single dose): 876 ng·h/mL
COC[C@@H](CC(C)C)NC(=O)c1ccc(C)c(CO)c1  metabolite peak area (LC-MS; human liver microsomes; 10 µM of parent drug, 10 min, pH 7.4, with: NADPH; reference: parent drug at time zero): 0.8%
CCCC[C@H](NC(=O)CNC(=O)CNC(=O)CN1CCN(CC(=O)O)CCN(CC(=O)O)CCN(CC(=O)O)CC1)C(=O)N[C@H]1CC(=O)NCCCC[C@@H](C(N)=O)NC(=O)[C@H](Cc2c[nH]c3ccccc23)NC(=O)[C@H](CCCNC(=N)N)NC(=O)[C@@H](Cc2ccccc2)NC(=O)[C@H](Cc2c[nH]cn2)NC1=O [lead-203 labelled]  tissue uptake (C57 mouse, lung; intravenous, 0.056 MBq, 2 h): 0.42 ± 0.16 %ID/g
O=S(=O)(c1ccccc1)N1CCCCC1  recovery (phosphate-buffered saline; 24 h, pH 7.4): 100%
COc1ccc2cc(-c3ccc(-c4ccc(C)cn4)nc3)oc2c1  radiative decay rate constant (TCSPC; toluene): 0.55 ns⁻¹
N[C@@H](COc1ccccc1C(F)(F)F)c1ccccc1  Vd (rat, plasma; intravenous, 5 mg/kg): 30.3 L/kg
C=C1C(=O)O[C@@H]2C[C@H](C)[C@@H]3C[C@H](OCc4cn(Cc5ccccc5)nn4)[C@H](O)[C@@]3(C)C[C@H]12  CC50 (propidium iodide flow cytometry; primary splenocytes, BALB/c mouse; 48 h, 10% fetal calf serum): 69.1 ± 12 µg/mL (≈ 158 µM)
COc1cc(NC(C)=O)c2c(c1O)-c1c(OC)c(OC)cc3c1C(C2)N(C)CC3 (centres unmarked)  remaining compound (rat lung homogenate; 0.5 µg/mL, 24 h, room temperature, post-preparative storage): 92.4 ± 2.3%
CN(O)C(=O)CCC(=O)NCCCN(CCCCN(CCCNC(=O)CCC(=O)N(C)O)C(=O)CCC(=O)N(C)O)C(=O)CCC(=O)N(C)O.[89Zr]  intact compound remaining (aqueous solution; 7 d, pH 7.2, 37 °C, transmetalation, with: FeCl3 100-fold excess): 62%
CCC1CC2C(C)=CC3C(=O)CCCC3C=CC(C)=CC2C(=O)O1 (centres unmarked)  plasma concentration (ICR mouse male, plasma; intravenous, 2 mg/kg, 60 min): 5.2 ± 2.8 ng/mL
CC[C@H](C)[C@@H]1NC(=O)[C@H](CCCCN)NC(=O)[C@H](CCCCN)NC(=O)[C@H](Cc2ccc(O)cc2)NC(=O)[C@H](CC(C)C)NC(=O)[C@@H]2CCCN2C(=O)CNC(=O)CNC(=O)[C@@H](NC(=O)CN)CSSC[C@@H](C(=O)N[C@@H](CCC(=O)O)C(=O)N[C@@H](CO)C(N)=O)NC(=O)[C@H](CC(C)C)NC(=O)[C@H](CCCCN)NC(=O)[C@H](CCCCN)NC(=O)[C@H]([C@@H](C)CC)NC(=O)[C@H]([C@@H](C)CC)NC(=O)[C@H](CCCCN)NC(=O)[C@H](CCCCN)NC(=O)[C@H](Cc2ccc(O)cc2)NC(=O)[C@H](CC(C)C)NC(=O)[C@@H]2CCCN2C(=O)[C@H](C)NC(=O)CNC(=O)CNC(=O)[C@H](CO)NC(=O)CNC(=O)CNC(=O)[C@H](CO)NC(=O)[C@H](CCC(=O)O)NC(=O)[C@H](CC(C)C)NC(=O)[C@H](CC(C)C)NC(=O)[C@H](CCCCN)NC(=O)[C@H](CCCCN)NC(=O)[C@H]([C@@H](C)CC)NC1=O  HC10 (hemolysis; uninfected human erythrocytes; 1 h): > 128 µM
CC12CC(c3ccc(S(C)(=O)=O)cc3)C3=C4CCC(=O)C=C4CCC3C1CCC2(O)C(F)(F)C(F)(F)F (centres unmarked)  mean residence time (human, plasma; intravenous, 15.7 µg, [14C] microdose, geometric mean): 49.7 h
CC(C)[C@H](NC(=O)CNC(=O)[C@H](CCC(N)=O)NC(=O)[C@H](C)N)C(=O)O  time of quantifiable concentrations (human; 20 mg/kg, multiple dosing; up to): ≤ 45 min

Some of these lines once more:
Oc1ccc2ccccc2c1/N=N/c1ccc(/N=N/c2ccccc2)cc1  measured concentration (rat whole blood QC samples; 5.0 µg/L, 8 h, room temperature, short-term stability): 5.33 µg/L
Cc1ccc(OCC(=O)O)cc1  Cmax (Sprague-Dawley rat, female, plasma; oral gavage, 100 mg/kg of parent drug): 12300 ± 5360 ng/mL
COC(=O)/C=C/C(=O)c1ccc(OC)cc1  recovery (LC-MS/MS; rat plasma; 400 ng/mL, 12 h, room temperature, short-term storage): 101 ± 6.32%
Cn1c(=O)oc2ccc(-c3ccc(CC(C#N)NC(=O)C4CNCCCO4)c(F)c3)cc21 (centres unmarked)  subjects with TRAE (item: blood bilirubin increased; human; 80 mg single dose, fasted): 0%
